{"data": "Published values of several laboratories", "note": "Every numbered part comes from another study and shows a few of its results, in no order."}
{"data": "Series 1", "target": "Prothrombin, mature alpha-thrombin (F2, Homo sapiens, UniProt P00734)", "method": "aptamer microarray, sandwich", "molecule type": "DNA with 2'F-ANA", "matrix": "in vitro", "concentration": "200 nM", "setting": "whole 15-mer aptamer, many near background", "with": "Cy3 exosite-II aptamer, 400 nM", "reading": "higher = stronger binding", "oligonucleotide": "GGTTGGTGTGGTTGG"}
{"Modification": "2'F-ANA at 1 3 4 5 6 10 11 14 15", "mean fluorescence intensity [a.u.]": 57.4}
{"Modification": "2'F-ANA at 6 7 8 9 10 11 12", "mean fluorescence intensity [a.u.]": 169}
{"Modification": "2'F-ANA at 3 6 7 9 11 13 14", "mean fluorescence intensity [a.u.]": 473}
{"Modification": "2'F-ANA at 2 3 6 8 9 10 13 14 15", "mean fluorescence intensity [a.u.]": 288}
{"Modification": "2'F-ANA at 1 2 4 5 9 13 14", "mean fluorescence intensity [a.u.]": 46.4}
{"Modification": "2'F-ANA at 1 3 5 10 12 14 15", "mean fluorescence intensity [a.u.]": 45.9}
{"Modification": "2'F-ANA at 1 3 5 6 8 10 11 13", "mean fluorescence intensity [a.u.]": 47.5}
{"Modification": "2'F-ANA at 2 6 7 10 13", "mean fluorescence intensity [a.u.]": 106}
{"data": "Series 2", "target": "Centromere-binding protein 1, full length, N-terminal tag (CBF1, Saccharomyces cerevisiae, UniProt P17106, residues 1-351)", "method": "protein-binding microarray", "molecule type": "double-stranded DNA, one strand shown", "matrix": "in vitro", "concentration": "0.8 µM", "setting": "whole 60-bp probe, no competitor", "reading": "higher = stronger binding", "all sequences stand within": "… GTCTTGATTCGCTTGACGCTGCTG", "sequence of UniProt P17106 (whole entry, looked up)": "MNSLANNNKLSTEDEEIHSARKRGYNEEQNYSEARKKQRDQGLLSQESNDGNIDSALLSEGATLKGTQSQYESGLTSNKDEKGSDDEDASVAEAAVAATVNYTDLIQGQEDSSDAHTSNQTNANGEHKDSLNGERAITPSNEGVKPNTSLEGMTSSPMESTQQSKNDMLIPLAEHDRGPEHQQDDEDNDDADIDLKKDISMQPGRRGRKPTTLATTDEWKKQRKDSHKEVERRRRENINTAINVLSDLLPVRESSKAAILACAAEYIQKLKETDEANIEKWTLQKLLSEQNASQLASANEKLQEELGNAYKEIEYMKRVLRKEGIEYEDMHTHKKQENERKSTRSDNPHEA"}
{"Oligonucleotide": "CCTAACTACTATAATAACGTGATATAGCTTCGTACA", "fluorescence intensity [a.u.]": 1410}
{"Oligonucleotide": "CTAAGCTCTGTGGTTCACGTTCAATGTAGTGTTTTC", "fluorescence intensity [a.u.]": 529}
{"Oligonucleotide": "GAATCACCAAAAAGAAACGTGCGAAAAAAACCGTAG", "fluorescence intensity [a.u.]": 707}
{"Oligonucleotide": "CTAATGTGCTAGCGCCACGCGATGGCTGGTTTGTTC", "fluorescence intensity [a.u.]": 514}
{"Oligonucleotide": "CTACGAACCATAGCTGATGGAACTCCGCTTTTCTTC", "fluorescence intensity [a.u.]": 522}
{"Oligonucleotide": "CTAATGTATTACTATCACGTGGGTGGGGAAGACTTC", "fluorescence intensity [a.u.]": 10000}
{"Oligonucleotide": "GAAATCGTGACACTGCTGATGGTTTTGTCATTCTAG", "fluorescence intensity [a.u.]": 540}
{"Oligonucleotide": "GAATAATAGTGGAATCAGGTGCCTAAATAAATGTAG", "fluorescence intensity [a.u.]": 1480}
{"data": "Series 3", "target": "Interferon regulatory factor 7, full length, phosphomimetic (IRF7, Homo sapiens, UniProt Q92985, residues 1-503, S101K/S471D/S472D/S475D/S476D/S477D/S483D/S484D/S487D)", "method": "protein-binding microarray", "molecule type": "double-stranded DNA, one strand shown", "matrix": "in vitro", "concentration": "250 nM", "setting": "60-bp whole probe", "with": "salmon DNA 0.4 mg/ml", "reference": "random background probes", "reading": "higher = stronger binding", "all sequences stand within": "GCCTAGCAC … GTCTTGATTCGCTTGACGCTGCTG", "Target sequence (chain)": "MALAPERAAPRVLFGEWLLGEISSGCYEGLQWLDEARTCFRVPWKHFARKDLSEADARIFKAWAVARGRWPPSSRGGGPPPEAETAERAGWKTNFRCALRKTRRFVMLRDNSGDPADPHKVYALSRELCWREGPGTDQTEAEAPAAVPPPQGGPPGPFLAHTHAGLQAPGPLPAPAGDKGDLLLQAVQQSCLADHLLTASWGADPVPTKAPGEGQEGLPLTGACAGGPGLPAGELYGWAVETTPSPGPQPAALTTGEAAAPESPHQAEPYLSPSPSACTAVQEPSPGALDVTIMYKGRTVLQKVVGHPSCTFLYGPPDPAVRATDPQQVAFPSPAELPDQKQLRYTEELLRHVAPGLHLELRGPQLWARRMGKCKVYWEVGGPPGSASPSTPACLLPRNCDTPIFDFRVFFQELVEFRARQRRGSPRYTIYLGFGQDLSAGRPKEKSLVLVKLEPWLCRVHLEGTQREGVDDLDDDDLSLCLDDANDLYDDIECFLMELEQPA"}
{"Oligonucleotide": "GACGGTATCGACACGGGGGACGTGCTA", "log fluorescence [z-score]": 0.356}
{"Oligonucleotide": "GACGTTATCAGTATCGAGACGTGCTAG", "log fluorescence [z-score]": 0.272}
{"Oligonucleotide": "TTAGGTCTCCTTCTCCTTTGGTGCTAG", "log fluorescence [z-score]": 0.518}
{"Oligonucleotide": "GACGAACTAAGACTGGAGACGTGCTAG", "log fluorescence [z-score]": 0.209}
{"Oligonucleotide": "GTTCTTTTCAGTCCCCTCTTGTGCTAG", "log fluorescence [z-score]": 2.37}
{"Oligonucleotide": "TTAGGTTTCCTTTTCCTATAGTGCTAG", "log fluorescence [z-score]": 7.55}
{"Oligonucleotide": "TTAGGATTGGACTATCGGTTAGTGCTA", "log fluorescence [z-score]": -0.277}
{"Oligonucleotide": "GATGATATCAGACTGGAGACGTGCTAG", "log fluorescence [z-score]": -0.786}
{"data": "Further values, each from its own experiment"}
{"Sequence": "VTSSVSSGY", "target": "HLA class I histocompatibility antigen, A alpha chain, allele A*80:01 (Homo sapiens, UniProt P04439)", "effect on": "peptide-MHC binding", "molecule type": "peptide", "concentration": "concentration not given", "measurement": "binding", "value": "inactive"}
{"note": "For quick reference, copied from above (series 3):"}
{"Oligonucleotide": "GACGTTATCAGTATCGAGACGTGCTAG", "log fluorescence [z-score]": 0.272}
{"Oligonucleotide": "GACGGTATCGACACGGGGGACGTGCTA", "log fluorescence [z-score]": 0.356}
{"Oligonucleotide": "GATGATATCAGACTGGAGACGTGCTAG", "log fluorescence [z-score]": -0.786}
